Published values pooled from the literature.
Each numbered part is a random draw from the data of one study; scales do not carry over between parts. Substitutions count along the parent as printed.

Block 1
Target: RNA binding protein fox-1 homolog 2, RRM domain, GST-SBP tag (RBFOX2, Homo sapiens, UniProt O43251-10, residues 100-194)
Method: RNA Bind-n-Seq
Form: RNA
Sample: in vitro
Concentration: 365 nM
Notes: natural RNA segment, single round, ends assumed
Baseline: no-protein control
Direction: higher = stronger binding
All sequences stand within: GGGAGUUCUACAGUCCGACGAUC … UGGAAUUCUCGGGUGCCAA
Target sequence (chain): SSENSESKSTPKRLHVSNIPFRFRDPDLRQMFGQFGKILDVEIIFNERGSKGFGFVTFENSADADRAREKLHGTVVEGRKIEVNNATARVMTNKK
| Sequence | RBNS enrichment (R) |
| --- | --- |
| UCAUAUGCUAGUACUAUGUCAAAGCAACAGUCCACACUUUGUCCAAUGGUUUUUUCACUGCCUGACCUUUAAAAGGCCAUCGAUAUUCUUUGCUCUUGCCAAAAUUGCAC | 2.87 |
| UGGCUCUAGAUCUACAUUCUUCAAAAAAAAAAAUUGGCUUAACUGUUUCAUCUUUAAGUAGCAUUUUGCUGCCAUUUGUAUUGGGCUGAAGAAAUCACUAUUGUGUAUAU | 0.582 |
| AGCUUUUAUUUCAUUACAAUUAAAGAUGUCUCAUGUACUUGGAAAAGUGAGCAUAUUUUUUUUUGUAUUUGAAUUUCAUAUCAAGCUUAAUGUCAGUGACAUUUUUUUAU | 0.851 |
| AGAAGAACAUUCUUUUCAAUGGAGCUCAUCUUCUAUCUCUAGGGUCUGUUCAGCCUUUCAUCUAUCCAUCCUUCCUCUUUAUUGGUAGAAGAAACAGUGGAGAGUAGCCA | 0.285 |
| CAUCUCUCCUCCUACAGCCUUAAUGGCUGCUUGCUGCCAUAUGUGACAAAUCACCACCACCAGUGUUAAGUGCUUCUGGAUUCAUGGGUGAGUUCCCUGGGCAGCCCCCA | 0.311 |
| UUCCACGCUGAGGUACCCUCUGCAGUGGUAGGCAGCCUGCCCAUAUGGCCACUUGGGCCUGACUCUAAGUUUCUGCCCCAGUGAAACAGACCAUGUGCAAUUCCCAGGUA | 0.199 |
| AUAUUUGGAGCUAUCAGUGCUUUGUUGAUUUAGAUGAUGACUCAAGAUUUUUUCUGGUCCAUUUCCCAUUUCCUUUUCUUCCCUGACCCCCAUACCCUCACCCUUAAAAU | 1.6 |
| CAUGUUGUUUCCAUAACUACUUUGAUAUUUUAACUCAGGUACUCCAGUCUUCACCCCAACCUCAGCUGAUUGUAGUACACCUGCUAGCUCUGUUGCCCCCUCAAAACUGC | 0.377 |
| GCACAGUAAACGCAAGAGGGGAUUUGUGUACAAAAGGCAAAAAAAGUAUUUGAUAUCAUUGUACAUAAGAGUUUUCAGAGAUUUCAUAUAUAUCUUUUACAGAGGCUAUU | 0.898 |
| CCGGUCUCCAGGCUCCUCUGAGCUUGGGUCAGCUCCUAAUGGAGCAUGGCACCCCAGGGAACCAGAGGAACUCUGUGAAGAAAGGCAUGGAAAACCGGGGUGUCUCCCGC | 0.889 |
| GGCAGGAGGUCCCACCAUGUGGACAGACAUAGCCCAAGGAGGCACCACAGGUCUAUGUGUGCUGGGGGAUGUCAGGUGCCACCCAACGCUGUCCUGGUGGUAUUUACAAU | 0.275 |
| UGUGGGAUCAGGGGACUGGAGUCACUGUGUCUACACCACCAGCUUCUAGAGGAAUUUGGUCUAUGCUUGUCCACCAGGCUACCAGCUAGGGCUCUAGAGAAAGCAGCUAG | 0.917 |

Block 2
Target: ABI1, truncated, D143A, DHFR fusion (Arabidopsis thaliana)
Method: DHFR PCA, deep sequencing
Sample: yeast
Notes: methotrexate growth selection, single substitutions
Together with: (+)-ABA 58 µM
Baseline: wild-type fitted maximum
Direction: higher = stronger binding
Starting sequence: PYL1, truncated, DHFR fusion (Arabidopsis thaliana); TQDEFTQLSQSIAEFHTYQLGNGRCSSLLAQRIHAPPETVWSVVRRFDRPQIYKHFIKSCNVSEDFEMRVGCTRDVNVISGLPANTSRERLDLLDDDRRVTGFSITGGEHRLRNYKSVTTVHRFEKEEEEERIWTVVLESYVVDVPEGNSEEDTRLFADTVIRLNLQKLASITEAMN
| Variant | relative binding score [%] |
| --- | --- |
| T39C | 83.3 |
| G107N | 48.4 |
| P37V | 82.2 |
| G108I | -14.4 |
| G23V | 44 |
| A175P | 72.3 |
| Q10P | 88 |
| K116R | 95.1 |
| V161L | 75.4 |
| P50H | -5.06 |
| P36A | 84.9 |
| T86S | 83.2 |
| G21C | 88.4 |
| Y53Q | -22.9 |
| T154M | 64.3 |
| Q10G | 90.3 |
| H16M | 0.337 |

Block 3
Target: Interferon regulatory factor 7, full length, phosphomimetic (IRF7, Homo sapiens, UniProt Q92985, residues 1-503, S101K/S471D/S472D/S475D/S476D/S477D/S483D/S484D/S487D)
UniProt Q92985, sequence (whole entry, unmodified, looked up): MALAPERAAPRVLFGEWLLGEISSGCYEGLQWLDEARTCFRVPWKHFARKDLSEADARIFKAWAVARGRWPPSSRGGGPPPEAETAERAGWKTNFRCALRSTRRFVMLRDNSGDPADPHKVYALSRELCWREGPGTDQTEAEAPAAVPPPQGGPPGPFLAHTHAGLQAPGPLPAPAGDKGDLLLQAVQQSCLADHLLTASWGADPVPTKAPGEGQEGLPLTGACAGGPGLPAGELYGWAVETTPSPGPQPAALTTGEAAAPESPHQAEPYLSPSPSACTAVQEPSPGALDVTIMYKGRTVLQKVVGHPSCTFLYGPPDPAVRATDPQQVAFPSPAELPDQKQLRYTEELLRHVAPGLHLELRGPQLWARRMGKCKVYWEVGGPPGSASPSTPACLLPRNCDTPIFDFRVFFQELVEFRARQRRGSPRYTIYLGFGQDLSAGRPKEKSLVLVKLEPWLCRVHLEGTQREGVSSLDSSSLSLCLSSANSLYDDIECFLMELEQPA
Method: protein-binding microarray
Form: double-stranded DNA, one strand shown
Sample: in vitro
Concentration: 250 nM
Notes: 60-bp whole probe
Together with: salmon DNA 0.4 mg/ml
Baseline: random background probes
Direction: higher = stronger binding
All sequences stand within: GCCTAGCAC … GTCTTGATTCGCTTGACGCTGCTG
| Sequence | log fluorescence [z-score] |
| --- | --- |
| GACGATTTCAGACGGGAGACGTGCTAG | -0.0811 |
| TTAGGTTTCGGCCTCGGTTAGTGCTAG | 3.11 |
| GACGGTATCGACTATTGGGACGTGCTA | -0.271 |
| TTAGGCATCCTTTTCCTTTAGTGCTAG | 0.736 |
| GACGTTATCGGGACTGGAGACGTGCTA | -0.103 |
| GACCGTATCCTTTTCCTGACGTGCTAG | 1.33 |
| GACGATTCCAGTTTTGAGACGTGCTAG | 1.18 |
| TCATAAACTAGAAACTGAACTGTGCTA | 0.969 |
| GACGGGATCGGACTGGGGACGTGCTAG | 0.0783 |
| TTAGATCTCAGTTTCGAATAGTGCTAG | 4.09 |
| TTATATCTCAGACTGGATTAGTGCTAG | 0.365 |
| GACGGTATCGGTATCTGGACGTGCTAG | 1.23 |
| ATCCATTTTGGTTTTCATTAGTGCTAG | 1.65 |
| GACGAACTGAGTTTCGTGACGTGCTAG | 1.6 |
| TCACTTTCTGTTTTCTCACTGTGCTAG | 4.68 |
| AGTGTCTCCATCAGAGGAGAGTGCTAG | -0.437 |
| TTGGGTATCGGGTTTCGGTTAGTGCTA | 6.55 |
| GACGATATCGGGTATCGTGACGTGCTA | -0.291 |
| TCCCAAGTCTTGTTTTACAATGTGCTA | 1.81 |
| TTAGGTTTCGGACTGCGTTAGTGCTAG | 4.81 |

Block 4
Target: Max-binding protein MNT, bHLH-zipper, MAX partner unstated (MNT, Homo sapiens, UniProt Q99583, residues 220-300)
Method: protein-binding microarray
Form: double-stranded DNA, one strand shown
Sample: in vitro
Concentration: not given
Notes: k-mer, scored over probes, only values ≥0.25
Direction: higher = stronger binding
Residues (chain): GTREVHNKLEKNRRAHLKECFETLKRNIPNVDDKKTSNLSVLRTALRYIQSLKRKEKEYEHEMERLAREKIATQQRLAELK
| Sequence | E-score |
| --- | --- |
| CATGTACA | 0.289 |
| GCCATGCC | 0.355 |
| GCGAGCAC | 0.296 |
| CCACCCTC | 0.274 |
| GCACATGC | 0.47 |
| CGCACGAC | 0.255 |
| CTGTGGCC | 0.272 |
| ACGGGGGC | 0.285 |
| ACGTTGCC | 0.31 |
| CATGACCA | 0.325 |
| CATGCCGA | 0.363 |
| ATCTCATG | 0.297 |
| CGTGTCGA | 0.305 |
| AGTCCACG | 0.363 |
| CGCATGCA | 0.416 |
| CACGCCCC | 0.319 |

Block 5
Target: PABPC1L2, full length, GST fusion (mouse, UniProt A0ABA7IW68)
Method: RNAcompete
Form: RNA
Sample: in vitro
Concentration: 20 nM
Notes: 7-mer, probes averaged, single round
Baseline: mean of 7-mers
Direction: higher = stronger binding
Residues (chain): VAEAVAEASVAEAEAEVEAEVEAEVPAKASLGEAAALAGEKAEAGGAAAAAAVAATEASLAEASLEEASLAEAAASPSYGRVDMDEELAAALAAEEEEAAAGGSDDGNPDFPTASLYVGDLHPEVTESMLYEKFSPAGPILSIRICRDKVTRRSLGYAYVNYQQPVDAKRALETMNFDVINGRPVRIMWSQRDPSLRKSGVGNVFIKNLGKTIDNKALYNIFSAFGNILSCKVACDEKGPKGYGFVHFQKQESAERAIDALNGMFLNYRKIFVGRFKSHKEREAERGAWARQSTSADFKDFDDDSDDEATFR
| Sequence | 7-mer Z-score |
| --- | --- |
| AGCGAUC | -0.0971 |
| CUCACUA | -0.104 |
| CUCAUGU | -0.307 |
| CUAUAGG | -0.175 |
| CUCCACU | -0.378 |
| UUAUCGA | -0.0935 |
| AUUUUUC | -0.17 |
| AGGUAUG | -0.0772 |
| GGAAGUU | -0.175 |
| UAAUAUG | -0.139 |
| UUCAGUA | -0.159 |
| CCGCCGC | -0.371 |

Block 6
Target: Histone acetyltransferase KAT6A, both winged helices, GST fusion (KAT6A, Homo sapiens, UniProt Q92794, residues 1-181)
Method: protein binding microarray
Form: double-stranded DNA, one strand shown
Sample: in vitro
Concentration: not given
Notes: 8-mer, flanks averaged, mean of 2 arrays, mostly near background
Baseline: not given
Direction: higher = stronger binding
Residues (chain): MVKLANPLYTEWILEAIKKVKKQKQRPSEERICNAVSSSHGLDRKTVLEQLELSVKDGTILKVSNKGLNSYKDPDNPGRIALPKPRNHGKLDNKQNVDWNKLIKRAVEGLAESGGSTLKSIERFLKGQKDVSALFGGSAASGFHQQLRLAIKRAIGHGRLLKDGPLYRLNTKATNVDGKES
| Sequence | E-score |
| --- | --- |
| CACTGATA | -0.124 |
| ACCATGCT | -0.151 |
| AAAATGGC | 0.025 |
| GACGACAA | -0.075 |
| GCAACAGC | 0.0636 |
| CAGCACGA | -0.0636 |
| CATACACC | 0.00859 |
| GTTGGGAA | -0.217 |
| ATGAATAC | 0.0438 |
| ACCCCTGA | -0.183 |
| CTGTAGAC | 0.0458 |
| ACATTTCG | -0.0659 |
| AGTGAATC | -0.225 |
| CCACTGAC | -0.0613 |
| ATCATTAG | -0.122 |
| ATATCATA | -0.0201 |
| AGGACACG | 0.0916 |
| GCAGACAC | 0.0309 |
| TCCCCAAA | -0.252 |
| GCAAGAAA | -0.00184 |
| GGGCGCAC | 0.134 |
| ACACTGAG | -0.0349 |
| GCAGAGAA | 0.105 |
| AAGAGACC | -0.029 |
| ACGCAGAA | 0.131 |

Block 7
Target: Sal-like protein 4, full length isoform B (SALL4, Homo sapiens, UniProt Q9UJQ4-2, residues 1-616)
Method: universal PBM
Form: double-stranded DNA, one strand shown
Sample: in vitro
Concentration: not given
Notes: 8-mer, flanks averaged, mean of replicates
Direction: higher = stronger binding
| Sequence | E-score |
| --- | --- |
| ACGTAGAC | -0.0765 |
| GCGATAGC | 0.0343 |
| TCCCATCA | 0.0777 |
| ATAGGAAT | 0.234 |
| ACCCTAGA | -0.0425 |
| GTGTCGGA | -0.13 |
| GGTTCAAC | -0.283 |
| CGTACTAC | 0.0578 |
| ATACCTGG | -0.127 |
| CGTTTAGC | -0.0318 |
| CGACTAGA | -0.176 |
| ACGTACGC | -0.0542 |
| GATATGAC | 0.272 |
| TCAAAAGA | 0.0892 |
| ATTATAAG | 0.338 |
| CGCGTCTA | 0.0137 |
| AAATAAGG | 0.105 |
| ACGCCACG | -0.23 |
| CCGGAAGC | -0.358 |
| CGACACCC | -0.214 |
| GTGAGGAA | -0.0764 |
| GCGTCAAA | -0.0319 |
| GACAGTAA | 0.11 |

Repeated from above (block 7):
| Sequence | E-score |
| --- | --- |
| GTGTCGGA | -0.13 |
| GCGATAGC | 0.0343 |
| ACCCTAGA | -0.0425 |
| AAATAAGG | 0.105 |
| ATAGGAAT | 0.234 |
| CGTTTAGC | -0.0318 |
| ATTATAAG | 0.338 |
| GGTTCAAC | -0.283 |
| GATATGAC | 0.272 |
| TCCCATCA | 0.0777 |
